Experimental data pooled from the literature.
Parts stem from different laboratories: compare values within a part only.

Study 1
Target: RING finger protein unkempt homolog, zinc fingers 1-6, GST-SBP tag (UNK, Homo sapiens, UniProt Q9C0B0, residues 30-357)
Sequence of UniProt Q9C0B0 (30-357, looked up): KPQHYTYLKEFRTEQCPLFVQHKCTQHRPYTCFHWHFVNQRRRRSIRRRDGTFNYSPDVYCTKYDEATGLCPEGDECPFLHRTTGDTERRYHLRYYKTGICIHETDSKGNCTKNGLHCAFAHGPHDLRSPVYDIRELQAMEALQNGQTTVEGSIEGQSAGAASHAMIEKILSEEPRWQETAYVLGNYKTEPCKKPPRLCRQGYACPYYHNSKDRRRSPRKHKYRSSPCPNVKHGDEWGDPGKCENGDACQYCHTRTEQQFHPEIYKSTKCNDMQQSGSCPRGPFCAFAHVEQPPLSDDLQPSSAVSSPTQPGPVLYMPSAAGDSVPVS
Technique: RNA Bind-n-Seq
Molecule type: RNA
Matrix: in vitro
Concentration: not given
Setting: RNA with constant flanks, ends assumed
Relative to: input RNA pool
Direction: higher = stronger binding
Constant ends, left off below: GGGAGUUCUACAGUCCGACGAUC … CAACAGAGGAUUGAGCAUCA
| Strand | bound/input enrichment [ratio] |
| --- | --- |
| CCAAAGAAACUCCAUUUAUGUCCCUUGUGUGGCAAAAAUUUCUCUAACAACUCAAACCUAAUCCGGCACCAGAGAAUACAUGCAGCUGAAAGACUGUGUAUGGGUGUGGACUGCACUGAA | 0.178 |
| GUGCCUGAGGUGAAAAAAGUUUGUAAGUUAUUGAAUUAUGGUGUUCAUUAGAACAGCUACCCGCUGAUUCCCCUAUUUUAACAAACUGACAAGAGCACAUCCAUAAAAUGAAAACCUGUU | 0.304 |
| CGCCUCGGGUCGUGGAGCCAGGAGCGACGUCACCGCCAUGGCAGGCAUCAAAGCUUUGAUCCGUUUGUCCUUUGGAGGAGCAAUCGGACUGAUGUUUUUGAUGCUUGGAUGUGCCCUUCC | 0.0437 |
| GAGGAAACAGACUAUACUCCCGUUUGGUGCAUGAGACAGGCAGGCCGCUACUUACCAGAGUUCCGGGAAACCAGGGCUGCCCAGGACUUCUUCAGCACCUGCCGAUCUCCCGAGGCUUGC | 0.135 |
| UACAAGGAAUUGAAGAAUUUGAUUCCUAAGUCAGCAGUGGGCACACUGUCUGGAAACUCCCGUAAUGUGAUCCAGCUAAUCAUCGAUGCCUACAACUCUCUUUCUUCAGAAGUCAUUCUG | 0.0603 |
| GAGAGGGAUGGUGGGACCAGUUACUCUCCACAAGAAAAUUCACACAACCACAGUGCUCUUCACCGUUCAAAUUCACAUUCUUCUAAUCCAAGCAAUAACCCAAGCAAAACUUCAGAUGCA | 0.274 |
| GGGCACUGCAGCGUUGGAACGUGAGCCUCGGAUUUCCUGGCCCCUCUACUGUAAAUGUGCCUCCGCCUAAGCCUCCCAUCCUGUGUUAGCGUUGCCUGGUGCGGGGCAGGGCCUAACAAG | 0.106 |
| CAAUGCGUAUGAGUCUUUGACAUCAUGAUGUACAUCCGGCAAAGAAAAGAGACAAAACCCACCGAAGUUUCUGAGGAUUUUCCAUCACCAAAAGAAGAUGUGAAGUUGGAAAAGAAAUUG | 0.233 |
| GAUGGCACAGCUUCUGGAUCUAUCUGUUGAUGAGUCCGAAGCCUUUCUCUCAAAUCCCGCCGUUAACAAGACCAUCUUUGCUAAAGUAGACAGAUUAGCAGGAAUUAUCAACUUCCAGAG | 0.311 |
| UGCCUCUCAUUCAAUCCCUACAGCGAAUUUAUUCUAGCCACCGGCUCUGCGGAUAAGACCGCCGCUUUAUGGGAUCUGCGUAACUUAAAAUUAAAACUCCAUACCUUCGAAUCUCAUAAA | 0.346 |
| UUUGUUUUGUUUGGGGGCCUUUUUUUUUUCCCUAGAAGAUAUGGAGAGCCUUCUUGUCCAACCCGAUUGUUCACCAUCAGCCUGGAACUCUCACUGAACCACCACAGAAAUCGUGGCGAU | 0.282 |

Study 2
Target: Histone acetyltransferase KAT6A, winged helix 1, GST fusion (KAT6A, Homo sapiens, UniProt Q92794, residues 1-85)
Technique: protein binding microarray
Molecule type: double-stranded DNA, one strand shown
Matrix: in vitro
Concentration: not given
Setting: 8-mer, flanks averaged, mean of 2 arrays, mostly near background
Relative to: not given
Direction: higher = stronger binding
Residues (chain): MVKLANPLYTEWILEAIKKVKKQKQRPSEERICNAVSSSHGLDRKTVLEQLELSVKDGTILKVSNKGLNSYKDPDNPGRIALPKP
| Strand | E-score |
| --- | --- |
| ACAGATAG | -0.239 |
| CCCTTTAC | 0.0368 |
| GCCGCCAA | 0.303 |
| GTGTGCGA | 0.14 |
| ACGCAAAA | 0.212 |
| AGGACTGG | -0.199 |
| GAATTGTC | -0.151 |
| AGACGGCT | 0.335 |
| TACGTTGA | -0.0438 |
| TGAGAGCA | -0.253 |
| CCCATGTA | 0.0219 |
| ACTAAGAT | -0.0501 |
| ATGCTCTC | -0.0847 |
| ATTTTCTC | -0.0884 |
| CAGAGACA | -0.216 |
| AGGTACCT | -0.27 |
| GCTTTTCA | -0.115 |
| ATTTTCTG | -0.221 |
| CTAGGTTC | -0.109 |
| ACGCAGTG | 0.274 |
| ATGTTTTA | -0.204 |
| CATCTAGA | -0.118 |
| GGCTAACC | 0.104 |
| CGCAGGTA | 0.134 |
| CGGTTAGC | 0.201 |

Study 3
Target: Prothrombin, mature alpha-thrombin (F2, Homo sapiens, UniProt P00734)
Technique: aptamer microarray, sandwich
Molecule type: DNA with 2'F-ANA
Matrix: in vitro
Concentration: 200 nM
Setting: whole 15-mer aptamer, many near background
With: Cy3 exosite-II aptamer, 400 nM
Direction: higher = stronger binding
Strand: GGTTGGTGTGGTTGG
| Modification | mean fluorescence intensity [a.u.] |
| --- | --- |
| 2'F-ANA at 2 3 4 7 8 9 14 | 325 |
| 2'F-ANA at 2 6 8 | 428 |
| 2'F-ANA at 3 5 7 9 12 13 14 | 64.7 |
| 2'F-ANA at 1 3 4 6 8 11 12 14 15 | 80.4 |
| 2'F-ANA at 3 5 6 7 9 10 11 12 15 | 62.3 |
| 2'F-ANA at 3 6 7 8 9 11 12 13 14 15 | 452 |
| 2'F-ANA at 2 3 6 7 8 11 13 14 | 409 |
| 2'F-ANA at 1 2 3 4 6 7 8 10 12 | 75.8 |
| 2'F-ANA at 2 4 5 9 | 72.7 |
| 2'F-ANA at 3 6 7 9 11 12 | 1060 |
| 2'F-ANA at 1 2 5 9 10 12 13 | 110 |
| 2'F-ANA at 1 2 3 6 10 12 15 | 88.8 |
| 2'F-ANA at 2 3 9 12 15 | 1110 |
| 2'F-ANA at 1 3 6 11 12 13 14 | 97.5 |
| 2'F-ANA at 1 3 4 5 6 9 10 12 13 | 50.5 |
| 2'F-ANA at 1 5 7 8 12 14 | 50.9 |
| 2'F-ANA at 2 3 4 6 7 8 9 12 13 14 | 223 |
| 2'F-ANA at 1 2 3 5 10 11 12 14 15 | 60.7 |
| 2'F-ANA at 1 2 3 4 6 8 9 11 13 14 | 66.2 |
| 2'F-ANA at 1 2 7 8 12 | 441 |
| 2'F-ANA at 2 3 6 7 8 9 10 | 343 |
| 2'F-ANA at 7 8 13 14 15 | 226 |
| 2'F-ANA at 2 3 4 6 10 13 14 15 | 164 |

Study 4
Target: ATP-dependent RNA helicase DDX3X, helicase core (DDX3X, Homo sapiens, UniProt O00571, residues 132-607)
Sequence of UniProt O00571 (132-607, looked up): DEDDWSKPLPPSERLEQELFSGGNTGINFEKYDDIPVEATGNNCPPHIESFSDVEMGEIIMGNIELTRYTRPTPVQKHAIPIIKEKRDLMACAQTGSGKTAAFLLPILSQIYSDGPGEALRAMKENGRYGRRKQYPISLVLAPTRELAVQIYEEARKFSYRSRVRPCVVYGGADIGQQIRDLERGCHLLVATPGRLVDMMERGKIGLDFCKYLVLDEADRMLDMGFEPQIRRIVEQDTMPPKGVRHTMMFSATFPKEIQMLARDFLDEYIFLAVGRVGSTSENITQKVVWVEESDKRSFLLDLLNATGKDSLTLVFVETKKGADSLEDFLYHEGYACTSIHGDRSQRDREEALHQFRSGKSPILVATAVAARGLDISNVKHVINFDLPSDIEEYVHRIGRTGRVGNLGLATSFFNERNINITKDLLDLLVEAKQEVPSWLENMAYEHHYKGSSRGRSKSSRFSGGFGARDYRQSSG
Technique: RNA Bind-n-Seq
Molecule type: RNA
Matrix: in vitro
Concentration: 90 pmol
Setting: 4-mer, random 30-nt RNA, single round
With: 3 µM iPr-DMDA-PatA, 2 mM ADP, 2 mM phosphate
Relative to: input library
Direction: higher = stronger binding
| Strand | 4-mer enrichment [fold] |
| --- | --- |
| CUCA | 0.996 |
| UACC | 1.08 |
| AAUC | 1.18 |
| AUGG | 0.921 |
| GUCU | 0.826 |
| GUAU | 1.03 |
| AUAA | 1.45 |
| GCCA | 0.89 |
| CAGA | 1.19 |
| UGCG | 0.746 |
| AAUA | 1.48 |
| AGGA | 1.28 |
| GACU | 0.976 |
| GAAA | 1.62 |
| GGCA | 0.798 |
| UUCG | 0.841 |
| UGAA | 1.28 |
| AGGC | 0.891 |
| CUCC | 1.06 |

Study 5
Target: RNA binding protein fox-1 homolog 2, RRM domain, GST-SBP tag (RBFOX2, Homo sapiens, UniProt O43251-10, residues 100-194)
Technique: RNA Bind-n-Seq
Molecule type: RNA
Matrix: in vitro
Concentration: 365 nM
Setting: natural RNA segment, single round, ends assumed
Relative to: no-protein control
Direction: higher = stronger binding
Constant ends, left off below: GGGAGUUCUACAGUCCGACGAUC … UGGAAUUCUCGGGUGCCAA
Construct (chain): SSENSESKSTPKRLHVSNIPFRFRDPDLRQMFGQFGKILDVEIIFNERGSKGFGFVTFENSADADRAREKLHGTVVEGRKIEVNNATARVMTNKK
| Strand | RBNS enrichment (R) |
| --- | --- |
| GUAGUCGUAGAAAUGGAAGACGCCAGCCCUGCGCAGCCUGCAGGGACAUCCGCCAGGCUUCCCCUCAGCAGCAGGAGCCCAGGUCACCCUGGUUAAACUGCAGUGAUACA | 0.203 |
| GUUGUCAAUGGGCUCCUGAUGCCCAUAUUCUGGGGAACCUUAGAUACUGCCAUAGAAGCUAAAAGCACCCUAGCUUUCUUAGACAAUCCACUUAGCUAUCUGAAACUUGA | 1.02 |
| UAGAUAAUAACUGUCUUCUGGACUUGGUCUUGAAGUCUGUACAGAUUCAGCCUCAGUAGUAGCGAACUGCACUGCUGUUUGGUUUGGAGUACAAAUUAGACUUAUAGUCC | 0.306 |
| AGUGUGGGUAACAGUCACAGCAGUUUUUUUUACCAACAGCAUACUUAACAGACUUGCUGUGUAGCAGUUUUUUUCUGGUGGAGUUGCUGUAAGUCUUGUAAGUCUAAUGU | 0.444 |
| CCAGUAAGCCCUUCUGGGUUUGAGUGUGUUCCCAUGUAGGAGGUAAAACCAAUUCUGGAAGCAUCUAAGCUUCCAUAAAUAACUUUAAUUCUUAGCAUAAUGACGGCCUU | 0.251 |
| ACCAACAUGGAGACCAAUGGGGUGGUGCCCGGCAUGUAAGCCCCGCCCACCCCACGGAGGCCACAGCCACACAGCCACGCCCCCUGAUUCUGGAACUCGCCCAACUUCCC | 0.2 |
| GAGGGAAGUUUGGCUAAUGGGCUGAUCGAAUGAGCUAACAUGGGCUGGGGCAGGCAACUACCCGUCCUCAAGCCCGCUGUUUCUGUCUCCCUACCAGACAGGCCUCUGGG | 0.299 |
| CUGGGAUGUCACAGUCCAAAAGGAAAGUGCCUUUCUCCAUGGCUGGAGUAUGGAGUUUACCUUUGGAGAAGUUGUAAUGGAGCAUGCCCUGUCCCACCACUCUCAGAGAG | 1.02 |
| GUCAGUUGCAAUGUGCAAGACAGGCUGCUUGCCGGGCCGCCCUCGGAACAUCUGGCCCAGCAGGCCCAGACUGUAUCCAUCCAAGUUCCCGUUGUAUCCAGAGUUCUUAG | 0.269 |
| UUUACUAUUGUAUGUCAUUUAAUUCUGAUCUGUUUAAUGCUACAAAAGUAAAGUUGAAAAGAUCUAAGACAUCUAGUUACCUAGACUGUACCCAGCAGGUAUCACUUGGU | 0.333 |
| CAGAAGUGUGACCUCAGUUAUAUAUACAUCCCAGCUCUGCCCAGUAUCCCUCACUUACCAAGAGGAGAAUGGAGGGAUAAUGGACUCACCCUAGCCUAGGGCUUCGACAU | 0.389 |
| AAUACCGUGUUAUCUGCUGUAUUUUCCCUGUGUGUAUAAUGUAUCUCCUUUCAGAACAGGAAUGUGCCUCCUAAUGUUUACUGUUACCCUGCUGUCUCUGUAUGUCCAGU | 2.1 |

A few entries again (study 4):
| Strand | 4-mer enrichment [fold] |
| --- | --- |
| UGAA | 1.28 |
| GACU | 0.976 |
| AAUC | 1.18 |
| UUCG | 0.841 |
| AAUA | 1.48 |
| CUCC | 1.06 |
| AGGC | 0.891 |
| AUAA | 1.45 |
| AUGG | 0.921 |
| CUCA | 0.996 |
| GUAU | 1.03 |
| UGCG | 0.746 |
| GGCA | 0.798 |
